Results from different studies.
Each numbered part is a random draw from the data of one study; scales do not carry over between parts. Changes are numbered by the printed parent chain.

Series 1 — target: MAFG, bZIP domain (human); technique: DHFR protein complementation; matrix: yeast; reference: wild-type JUN-FOS pair; direction: higher = stronger binding
Setting: single substitutions, most at no-binding floor
Starting sequence: JUN, bZIP domain (human); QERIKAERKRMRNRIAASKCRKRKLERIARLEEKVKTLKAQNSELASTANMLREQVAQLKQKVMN; partner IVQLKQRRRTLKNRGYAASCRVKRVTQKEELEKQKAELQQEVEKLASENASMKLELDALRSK
Substitution	binding fitness
R53V	-1.48 natural log
E32P	-1.52 natural log
E33S	-1.52 natural log
Q55P	-1.53 natural log
A46V	-1.49 natural log
L45S	-1.53 natural log
K34H	-1.42 natural log
S43T	-1.35 natural log
S47K	-1.13 natural log
L45Y	-1.47 natural log
E33Q	-1.24 natural log
R53H	-1.49 natural log
L52R	-1.51 natural log
A29T	-1.45 natural log
E44I	-1.45 natural log
N42E	-1.41 natural log
L45F	-1.53 natural log
E44A	-1.47 natural log

Series 2 — target: CCNB1, cyclin fold, Cln2 fusion (human); technique: yeast growth competition, sequencing; matrix: yeast; setting: weak parent motif; reference: not given; direction: higher = stronger binding
Starting sequence: SAMHD1 docking peptide (human); ASKSRVQLFKDDP
Substitution	normalised enrichment score
S4E	0.116
S2V	0.597
L8I	-0.208
S2Y	0.439
K10D	0.266
D12G	0.186
S2P	0.375
S4C	1.29
V6D	-0.186
F9G	-0.0544
S2R	0.00988
S4M	0.603
L8A	0.185
S4R	0.657
K10Y	-0.399
S2I	0.6
D12P	0.349
K10P	0.137
K3D	0.251
S2K	0.055
K10S	0.464
Q7W	0.334
S4G	0.0239
D11H	0.644
D12A	-0.0197

Series 3 — technique: RNA Bind-n-Seq; molecule type: RNA; matrix: in vitro; tested at: 200 nM; setting: whole 134-nt RNA, ends assumed; together with: 150 mM LiCl; reference: input library; direction: higher = stronger binding; library: 7-deaza-guanosine replaces G
Target: Ras GTPase-activating protein-binding protein 1, full length (G3BP1, Homo sapiens, UniProt Q13283)
Sequence of UniProt Q13283 (whole entry, looked up): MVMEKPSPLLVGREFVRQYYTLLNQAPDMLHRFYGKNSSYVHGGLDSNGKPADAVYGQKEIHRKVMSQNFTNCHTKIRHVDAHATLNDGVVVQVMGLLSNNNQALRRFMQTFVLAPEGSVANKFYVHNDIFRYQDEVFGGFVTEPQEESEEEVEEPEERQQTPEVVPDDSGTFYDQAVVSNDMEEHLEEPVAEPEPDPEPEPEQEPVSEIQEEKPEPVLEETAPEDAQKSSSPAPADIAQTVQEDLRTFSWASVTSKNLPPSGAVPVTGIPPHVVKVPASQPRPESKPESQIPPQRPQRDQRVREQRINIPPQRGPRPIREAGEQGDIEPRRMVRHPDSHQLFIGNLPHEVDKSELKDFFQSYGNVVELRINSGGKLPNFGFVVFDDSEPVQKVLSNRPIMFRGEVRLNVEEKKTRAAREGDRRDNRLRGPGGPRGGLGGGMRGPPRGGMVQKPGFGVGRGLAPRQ
Strand	log2 enrichment
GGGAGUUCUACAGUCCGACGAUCCACAGACAACACGCACCCACACAGACACAGAGGGAAGGGGUUGGGAUGGGGGCAGGGUGCACAGCAGGGCGGGGUAGGACCCCAGCCCCUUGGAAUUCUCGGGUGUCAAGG	-0.255
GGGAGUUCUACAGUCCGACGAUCCAAGUCCUGUGCUACACAUCGUAUGUACCGAAUCGGUUUUUGGAGGUUUUUUUGGAAAGUAUUAUGUUACGCCGUUCGGAUCUGCACUUCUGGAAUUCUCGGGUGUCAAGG	-0.332
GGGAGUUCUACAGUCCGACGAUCCACAGACAACACGCACCCCCACAGACACAGAGGGAAGGGGUUGGGAUGGGGACAGGGUGCACAGCAGGGCGGGGUAGGACCCCAGCCCCUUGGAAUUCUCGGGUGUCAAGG	-0.0764
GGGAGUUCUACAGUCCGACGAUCCUGUGCUACACAUCGUAUGUACCGAAUCGGGGUUUUUUUGGUUUUUUUGGGGUUUUUUUGGAAAGUAUUAUGUUACGCCGUUCGGAUCUGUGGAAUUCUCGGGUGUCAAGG	1.13
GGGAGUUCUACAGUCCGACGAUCGCAGGAAGUAAAAACAAAAAAAAAUGCUUCGGAUAGUGGCAGGGGUGGGGGUUGCUAAGGAAAGGGUGGGAUGGGAGUGGGUAAAGAGUUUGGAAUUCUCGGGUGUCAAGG	0.285
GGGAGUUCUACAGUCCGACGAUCCACAGACAACACGCACCCACACAGACACAGAGGGAAGGGGUUGAAAUGGGGACAGGGUGCACAGCAGGGCGGGGUAGGACCCCAGCCCCUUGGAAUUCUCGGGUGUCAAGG	-1.32
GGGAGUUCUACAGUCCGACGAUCUAACUUUAGAGGAGGAUCUGAUGGAUAUGGCAGUGGACAUGGAUUUGGGGAUGGCUAUAAUGGGUAUGGAGGAGGACCUGGAGGUGGCAAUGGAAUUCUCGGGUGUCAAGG	0.0393
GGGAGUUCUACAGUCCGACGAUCGCAGGAAGUAAAAACAAAUGGAAAUGCUUCGGAUAGUGGCAGGGGUGGGGGUUGCUAAGGAAAGGGUCGGAUGGGAGUGGGUAAAGAGUUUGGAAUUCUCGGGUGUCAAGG	-0.0616
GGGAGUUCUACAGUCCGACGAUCUGGCCCUGGUGGCAUGCGGGGAGGAAGAGGUGGCCUCAUGGAUCGUGGGGGUCCCGGUGGAAUGUUCAGAGGUGGCCGUGGUGGAGACAGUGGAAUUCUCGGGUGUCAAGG	0.429
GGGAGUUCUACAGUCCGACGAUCGAGGAGCUGCUGCUGGAGCCCGAGCCGGAGCCCGAGCCCGAAGAGGAGCCGCCCCGGCCCCGCGCCCCCCCGGGAGCUCCGGGCCCUGGGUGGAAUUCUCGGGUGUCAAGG	-0.115
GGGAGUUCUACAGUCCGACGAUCAAGUCCUGUGCUACACAUCGUAUGUACCGAAUCGGGGUGGGGAGGGGUUUUUGGGGAAAGUAUUAUGUUACGCCGUUCGGAUCUGCACUUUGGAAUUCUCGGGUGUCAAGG	0.0908

Series 4 — technique: protein-binding microarray; molecule type: double-stranded DNA, one strand shown; matrix: in vitro; tested at: 0.8 µM; setting: whole 60-bp probe, no competitor; direction: higher = stronger binding
Target: Centromere-binding protein 1, full length, N-terminal tag (CBF1, Saccharomyces cerevisiae, UniProt P17106, residues 1-351)
Sequence of UniProt P17106 (whole entry, looked up): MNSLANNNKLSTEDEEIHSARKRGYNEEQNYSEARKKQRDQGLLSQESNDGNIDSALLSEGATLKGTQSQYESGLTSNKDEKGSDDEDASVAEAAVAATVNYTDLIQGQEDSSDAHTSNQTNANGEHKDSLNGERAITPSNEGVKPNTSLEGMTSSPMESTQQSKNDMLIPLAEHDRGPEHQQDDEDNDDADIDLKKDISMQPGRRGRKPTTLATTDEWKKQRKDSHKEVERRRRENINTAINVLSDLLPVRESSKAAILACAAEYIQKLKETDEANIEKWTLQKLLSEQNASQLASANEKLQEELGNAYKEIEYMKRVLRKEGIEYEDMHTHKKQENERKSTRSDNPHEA
Strand	fluorescence intensity [a.u.]
GAATAAAAAAAAAGCCATGTGAATCAAAAAAAGTAGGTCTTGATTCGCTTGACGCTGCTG	899
CTAAATTTCTATCTTCACGCGCTTTCTCACTAATTCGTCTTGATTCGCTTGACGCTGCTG	552
CTAAATATGTACGGTCACGCCAATTCTTTTTCTTTCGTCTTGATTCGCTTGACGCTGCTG	847
TGTACGAAGCTATCCCACATGAATATAGTAGTTAGGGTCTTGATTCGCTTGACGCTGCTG	538
CTATGTGCACAAGAATACGTGTGTGTGCGTAAGTTCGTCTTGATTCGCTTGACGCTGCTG	520
CTAAAAAAGAGGAATTGCGTGGCGGCGTGGATGTTCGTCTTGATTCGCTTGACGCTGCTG	539
CTATGGTTATAAGGTGGTGTAAAGTAATGTAATTTCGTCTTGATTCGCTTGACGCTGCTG	535
CTATGAAAGTTTGCGAACGTGAAGTAAAACTGCTTCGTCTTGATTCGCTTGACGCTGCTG	559
GAATAAAGGTAATATCATGTGATTAAGAGTGAATAGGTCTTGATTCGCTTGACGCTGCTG	3210
GAACTTTATCTCCGTCAGATGAGAAAGGTTTACTAGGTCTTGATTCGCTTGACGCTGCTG	534
GAATAGTCCGTATGTCATGTGCTACGGCAAGCGTAGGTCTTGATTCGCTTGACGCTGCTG	1800
CCTAACTACTATATTCCCGTCACATAGCTTCGTACAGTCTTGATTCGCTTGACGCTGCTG	543
GAAGTTAGATAGGGTGGTGTGTGGTGTGTGGGTTAGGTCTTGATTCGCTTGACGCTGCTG	529
GAAAAACAATAAACGTGGGTGATGAAGACAAGATAGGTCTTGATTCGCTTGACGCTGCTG	652
CTAAATGGCTGTGGTCACATCAGGACCTACGAATTCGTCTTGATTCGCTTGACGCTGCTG	540
CTATAAAATCCAACGCACGATGCTAGAGATAAATTCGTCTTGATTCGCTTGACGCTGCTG	512
GAACGAATAAATAGCAACGTGAATAAGTAAGTCTAGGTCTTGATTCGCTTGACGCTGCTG	640
CTAAACTAGGCCCAGCACGGGTTTGGCGAGGCCTTCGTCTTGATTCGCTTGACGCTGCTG	574
GAATCTTATATATTCTACGTGGGAGCTCGAAAATAGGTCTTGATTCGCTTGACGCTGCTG	487
CTATCATATCAAATTCACATCAGACTTCAATTTTTCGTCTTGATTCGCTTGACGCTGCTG	544
CTAGTTCAATGCCTTCATATGATTGGTCCGAATTTCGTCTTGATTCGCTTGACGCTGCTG	513
CCTAACTACTATAGTCACATTAGATAGCTTCGTACAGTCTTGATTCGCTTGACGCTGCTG	543

Series 5 — technique: protein-binding microarray; molecule type: double-stranded DNA, one strand shown; matrix: in vitro; tested at: 250 nM; setting: 60-bp whole probe; together with: salmon DNA 0.4 mg/ml; reference: random background probes; direction: higher = stronger binding; all sequences stand within: GCCTAGCAC … GTCTTGATTCGCTTGACGCTGCTG
Target: Interferon regulatory factor 7, full length, phosphomimetic (IRF7, Homo sapiens, UniProt Q92985, residues 1-503, S101K/S471D/S472D/S475D/S476D/S477D/S483D/S484D/S487D)
Sequence of UniProt Q92985 (whole entry, unmodified, looked up): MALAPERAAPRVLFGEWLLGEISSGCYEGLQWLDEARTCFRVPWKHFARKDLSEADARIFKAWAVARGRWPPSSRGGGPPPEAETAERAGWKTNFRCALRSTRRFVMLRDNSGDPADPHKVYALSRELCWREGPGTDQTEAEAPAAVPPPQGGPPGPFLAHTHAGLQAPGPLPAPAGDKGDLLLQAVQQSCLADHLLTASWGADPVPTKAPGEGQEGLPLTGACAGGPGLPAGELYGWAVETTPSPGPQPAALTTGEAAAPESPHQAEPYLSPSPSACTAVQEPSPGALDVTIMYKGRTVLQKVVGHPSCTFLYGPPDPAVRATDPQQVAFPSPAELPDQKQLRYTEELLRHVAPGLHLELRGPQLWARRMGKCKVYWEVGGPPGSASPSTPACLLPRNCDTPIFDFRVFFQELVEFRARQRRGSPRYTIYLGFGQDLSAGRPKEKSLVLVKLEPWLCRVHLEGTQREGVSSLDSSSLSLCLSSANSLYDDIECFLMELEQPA
Strand	log fluorescence [z-score]
TACGATATCGGGTTTCGAGACGTGCTA	3
TTAGATTTCAGTCTCGTTTAGTGCTAG	3
CTTAGACTGTCCTGCTGGAGGTGCTAG	-0.388
GGGATGGTGGGGCTCCTCCTGTGCTAG	-0.408
GACGGTATCCTTTTCCTGCCGTGCTAG	0.611
GACGATTTCAGACTGGAGAGGTGCTAG	-0.142
TTAGATATCGGGTAACGATTAGTGCTA	0.0052
TTAGGTTACGACTATCGGTTAGTGCTA	0.193
TTTACTTTCTATGTCTGTTTGTGCTAG	1.53
GACGATTTCGGTCTCGAGACGTGCTAG	1.08
TCACATCTGATTTCTCAAACTGTGCTA	0.606
GACGTTATCGGTATCGGGACGTGCTAG	0.488
AACTTTTTTTAATTGAGAAGGTGCTAG	0.135
TTAGAATTGAGACTGGATTAGTGCTAG	0.00141
TAAGATATCGGGTTTCGATTAGTGCTA	7.37
TTGGGTTTCGGTCTCGGTTAGTGCTAG	7.04
ACTCCTATCCAAGTTCCCCTGGTGCTA	0.668
GACGGTTTCAGTCTCGAGACGTGCTAG	2.05
ACTTCATTGCATATAGAAAAGTGCTAG	1.04
GCCGATATCGGGTATCGAGACGTGCTA	0.2
TCATTTTTGCTTACGATACTGTGCTAG	0.97
GACGGTTTCGGTCACGGGACGTGCTAG	3.97
TCAACTCTTTACATGGGACTGTGCTAG	0.258
TCTGGGCCTCCATCATCTGTGTGCTAG	-1.04
TTAGATATCGGGACGGGATTAGTGCTA	0.231

Series 6 — technique: DHFR PCA, deep sequencing; matrix: yeast; together with: (+)-ABA 0.39 µM; reference: wild-type fitted maximum; direction: higher = stronger binding
Target: ABI1, truncated, D143A, DHFR fusion (Arabidopsis thaliana)
Setting: methotrexate growth selection, single substitutions
Starting sequence: PYL1, truncated, DHFR fusion (Arabidopsis thaliana); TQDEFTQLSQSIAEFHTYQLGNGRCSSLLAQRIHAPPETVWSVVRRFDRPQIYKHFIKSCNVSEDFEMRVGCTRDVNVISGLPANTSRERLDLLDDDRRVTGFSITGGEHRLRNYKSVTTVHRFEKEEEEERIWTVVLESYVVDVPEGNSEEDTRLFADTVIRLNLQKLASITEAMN
Substitution	relative binding score [%]
T120W	-12.1
K116Y	5.57
L82K	0.06
I12V	18.8
P50I	-13.7
V44E	5.94
N165V	11.7
N77K	69.7
V62A	6.47
E109F	-3.57
K58I	-8.08
L138I	-16.6
S117D	-5.32
E127H	56.3
F56W	11.3
N114L	-9.6
E128H	50.7

Some of these lines once more (series 2):
Substitution	normalised enrichment score
D12G	0.186
S2P	0.375
S4C	1.29
V6D	-0.186
F9G	-0.0544
S2R	0.00988
S4M	0.603
L8A	0.185
S4R	0.657
K10Y	-0.399
S2I	0.6
D12P	0.349
K10P	0.137
